Published values collected from several papers.
Protocols differ between the studies behind these lines.
Cell line: M14
Method: SRB

SMILES = CCC(=C(c1ccc(Cl)cc1)c1ccc(OCCCN(C)C)cc1)c1ccc(OC)cc1; observed = cell growth or viability; quantity = GI50; value = 970 nM
SMILES = CC(=O)OC[C@H]1O[C@@H](Sc2sc(C(=O)c3ccc(C)cc3)c(N)c2-c2nc3ccccc3s2)[C@H](OC(C)=O)[C@@H](OC(C)=O)[C@@H]1OC(C)=O; concentration = 10 µM; time = 48 h; relative to = untreated; quantity = growth; value = 65.7%
SMILES = CC(=O)OCC1(O)C(Nc2cccc(C(C)=O)c2)C(N)C(NC(=O)N(C)C)(C(C)OC(C)=O)C1(C)O (stereo not drawn); observed = cell growth or viability; quantity = GI50; value = 680 nM
SMILES = O=C1Nc2ccccc2/C1=N\Nc1nnc2n1N=C(c1ccc(Cl)cc1)CS2; observed = cell growth or viability; concentration = 10 µM; quantity = inhibition; value = 14%
SMILES = CC(=O)c1cccc(NC2C(N)C(NC(=O)N(C)C)(C(C)O)C(O)C2(O)COC(=O)c2c(C)cccc2O)c1 (stereo not drawn); observed = cell growth or viability; quantity = GI50; value = 100 nM
SMILES = CC(=C(c1ccc(O)cc1)c1ccc(Cl)cc1)c1ccc(Cl)cc1; observed = cell growth or viability; quantity = GI50; value = 700 nM
SMILES = COc1ccc(C2=Nn3c(NN=C4C(=O)N(Cc5ccccc5)c5ccc(Cl)cc54)nnc3SC2)cc1; observed = cell growth or viability; concentration = 10 µM; quantity = inhibition; value = 29%
SMILES = CC(=O)OC[C@H]1O[C@@H](Sc2sc(C(=O)c3ccc(Br)cc3)c(N)c2-c2nc3ccccc3s2)[C@H](OC(C)=O)[C@@H](OC(C)=O)[C@@H]1OC(C)=O; concentration = 10 µM; time = 48 h; relative to = untreated; quantity = growth; value = 61.6%
SMILES = CC/C=C\C/C=C\C/C=C\C/C=C\C/C=C\C/C=C\CCC(=O)Nc1ccn(C2OC(CO)C(O)C2(F)F)c(=O)n1 (stereo not drawn); observed = cell growth or viability; quantity = GI50; value = 24.3 nM

For quick reference, copied from above:
SMILES = CC(=O)OC[C@H]1O[C@@H](Sc2sc(C(=O)c3ccc(Br)cc3)c(N)c2-c2nc3ccccc3s2)[C@H](OC(C)=O)[C@@H](OC(C)=O)[C@@H]1OC(C)=O; concentration = 10 µM; time = 48 h; relative to = untreated; quantity = growth; value = 61.6%
